Assay results from different studies.
Each numbered part is a random draw from the data of one study; scales do not carry over between parts.

Block 1
Target: RING finger protein unkempt homolog, zinc fingers 1-6, SBP tag (UNK, Homo sapiens, UniProt Q9C0B0, residues 30-357)
UniProt Q9C0B0, sequence (30-357, looked up): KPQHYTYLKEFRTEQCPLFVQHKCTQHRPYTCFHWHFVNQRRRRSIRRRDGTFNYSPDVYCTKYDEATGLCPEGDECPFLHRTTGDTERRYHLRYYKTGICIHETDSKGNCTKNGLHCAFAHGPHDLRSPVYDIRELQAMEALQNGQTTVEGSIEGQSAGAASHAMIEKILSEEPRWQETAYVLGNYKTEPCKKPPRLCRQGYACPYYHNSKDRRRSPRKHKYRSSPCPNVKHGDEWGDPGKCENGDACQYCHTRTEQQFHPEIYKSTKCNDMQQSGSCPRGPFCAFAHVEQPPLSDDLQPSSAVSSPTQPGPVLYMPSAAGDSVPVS
Method: RNA Bind-n-Seq
Molecule type: RNA
Matrix: in vitro
Tested at: 100 nM
Notes: RNA with constant flanks, vertebrate orthologous sites, ends assumed
Reference: input RNA pool
Reading: higher = stronger binding
All sequences stand within: GGGAGUUCUACAGUCCGACGAUC … CAACAGAGGAUUGAGCAUCA
`CCCAUGGCUGCUUUGUAUCACCUCAGUGAGUUACAGUCCCCCUUGGCAUUUAGUUGGUACUACAGCCAGUCAUCCUUAACAAAUCUUUUCACAUUUUAUUUCUUUCACACGUAGUCAUCU` gave a bound/input enrichment of 2.69 ratio.
With `ACAGAGGAGAGCUCACAAACUCAAAGGAAAACCACUAAAGAGUUUCUAAUAGUCAAGAGCUAGGAAAUAUUAAGUCAAUUUUACAAAUAAUAGCAAUUAAAAAAAGAGAUGAGAACACAG` the bound/input enrichment was 1.19 ratio.
`GUUUUUGUCAUUUUUCACAUUUCCUGUAAAUAAUGGAUAAUCAUCAUUUAUUUUCUUGUAGAAUGUAUUUUUAAAAAUGUGGGUAGACCAUAAAUGUACUUGCUGACUUCAUUCAUUAUU` gave a bound/input enrichment of 0.836 ratio.
`AACUUGUAUGAAACAUGUCUGUCCAGAGAAGUAGUAUCCUAUAAAUAUUAUCAAGAAAUUUAGUAAGAGUAUUUUUAAGUAUUACAUUACAUUUCAGCAUUUAAAGUGAAUUUGAGAUUA` gave a bound/input enrichment of 0.355 ratio.
`UAUUAAGCAUCUUAAUAAAUUACUGGAGAUUCCUGAAGUCCAUUUUGUAGGAUCAGAUCAUAGGAUGGUGUUGUUUAAGUUUGUGUACUGUGUCCAGAGUUACAUUUUUAAAAGUGUUAA` has a bound/input enrichment of 0.442 ratio.
With `AGUAGUUUUAAGCUUGUUUGCACAGUUCUUUUGUUCCAUUGGAAAUGGAAUUCAUUGCCUUAGGUCUUUUUAAAUAGUGUAUUAUCGUUGGGGCUGGCUCUAUGCUUGAAAACCAGUUUA` the bound/input enrichment was 3.01 ratio.
The bound/input enrichment of `UGGGUUACUCCUAUUAUUAUCAAGUAGCUGGAAUUGUGAAGGUCGGAGUAGUUAGAUCUUUAGCUUUUAUUCCUUAUUUUUUUUUGUAUUCCUAUCCAUGUGUAUAAAUUAUUGAUCAUG` is reported as 7.14 ratio.
For `UAUUCAGUCAUGGAGAAAAGGUUAUUAAAAUAAUCUUAUGGCACUGCUCUUUACUUUUAUUAGUUUUACAAGAGUUAGGGUUCUUGUUCACAGAAAACAGGAGCUGACUAUUGAGGAGAA`, the bound/input enrichment was 0.345 ratio.
`UCCAGUCUUACACUUAUAGUUGGCCUCAAAUCUAUUGCAUUUAUGAUAAUGUAUUAUAUCUAGUUGAGUUUAAUAUUUUUUUAUUAGCUUGUAAAUAAAGAUGGCAUCUUCUACAUUAAA` has a bound/input enrichment of 0.803 ratio.
`CCCCGUUUUUAAAUGCCCUUUUGAUGCUCCCAGCAGCACCAUUUGUACAGUUUUUCUCUAAAAACAAAAAUGUUGAUUCGAAUUUCUUGUAUUUAAGUUUAAAUUGUUACAACAUUUUAG` has a bound/input enrichment of 0.189 ratio.
For `GUGCAAGGAGAUUAUUCCAACUAGUGAAUUUAUUAACAGUAAGUUAACAGCAAAAGCAAAUAGGCAGCUUCAAGAUCCUUUAGUAAUCAUGACAGGAAACAUCCCAACAUGGCUUACUGA`, the bound/input enrichment was 1.03 ratio.

Block 2
Target: RNA binding protein fox-1 homolog 2, RRM domain, GST-SBP tag (RBFOX2, Homo sapiens, UniProt O43251-10, residues 100-194)
Method: RNA Bind-n-Seq
Molecule type: RNA
Matrix: in vitro
Tested at: 365 nM
Notes: natural RNA segment, single round, ends assumed
Reference: no-protein control
Reading: higher = stronger binding
All sequences stand within: GGGAGUUCUACAGUCCGACGAUC … UGGAAUUCUCGGGUGCCAA
Residues (chain): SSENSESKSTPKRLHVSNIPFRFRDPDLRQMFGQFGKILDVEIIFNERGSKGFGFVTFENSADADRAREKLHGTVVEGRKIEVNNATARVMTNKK
`AUCUUGAGAGCUGAGGCUAGGUCCUCCCAGCUACUGUUAGGCAUUGAGGUACUAAAACUGCAGGUGGGUAUGUCCAUCUCAUCCAUUGUGGCUUGAGACCGGCCUUCAGG`: “RBNS enrichment (R)” 0.382.
Under “RBNS enrichment (R)”, `UGAGGAGGUUUAGGUGAAGUUGUGUUUGUGAACUCGGAGUUCUUCUCUGUAUUUGCCCAGGAUGGAGCACUCUGUCCCUGUCACAGGUGUGGUGAUUCCUGAGACUGGCA` is recorded as 1.88.
`UUUAAAGGCAAUGUACAGCUAUACUUUUUUAUAUGCUCUUCCAGUCAGUUAAAUUAUGGCCUACACUGAUCUGAGAUGUUCUCCACGUGAGCUGUCUUCAUUUCUCUGUG` — result for “RBNS enrichment (R)”: 0.309.
`GCUUGAGUCAUGCCUUACCUGCUAUAAGACAGAGUUUCCGCAUAGGUCAGUUCUAUGUGGUGUGGCAGUUACAUAGGAUGAGUACAUUUUCAGAGCAGCUAGAUGUCUGC` — result for “RBNS enrichment (R)”: 0.731.
For `GUUUGUAUCCUCUUUUAUUUCCUUGAGCAGUAGCUUGUAGUUCUCCUUGAAGAGGUCCUUCACAUCCCUUGUAAGUUGGAUUCCUAGGUAUUUUAUUCUCUUUGAAGCAA`, “RBNS enrichment (R)” read 0.65.
`CUUUCCCAGUAACAUUCCUGAGUCUACUGUCCUUAUCUUAGUGUUGUACUUGCAUGACAUGGAUAUCUGGUAUCUGAGGACAAGUUCAUUCUUGUGUAUUUAAUAACAAA`: “RBNS enrichment (R)” 6.53.
`AAAUGCUUAAGGACAUGCUAGGGGAAAAAAAAGUAAAAUUGAAGUGCUAUUGCAGACAUGGCUGCAGUACUGUACCUUAUCAUUCUGAUGAAACUGAUUUGGAGCACCCU` — result for “RBNS enrichment (R)”: 0.948.
Under “RBNS enrichment (R)”, `CUGAGCUUGGUAUUUGUCAUGUGCCAACUCUGACUCUGAGGUGGGCAGUGAGGGAAGCAGCCCCGGGCCUGCUUGCUUCCUGUCCCCGAAAUGUUCGUUUCUUCUGAAGU` is recorded as 0.368.
`GCCCAGGUUGGGCAUGACAUUACAACCCCAGCCCUACCUCAUCUGUGCAGAAAGACGCUGAAAGUGCAAAAUGUAUUGGGGAAUAACCUUGUUGAAUCACAAUAAUGGUG`: “RBNS enrichment (R)” 0.751.
`AUUUUAUGGUUUUUUUUUAAAAUCGUGUUUUGUCACAGAUGCCCCUAGUGUUUGUGCUAACCUAGUCAGAAGCAAGUGUCUCACUCACUUGCUGCAGAUGGAACAAAUGC` — result for “RBNS enrichment (R)”: 0.389.
For `CUGGUCCCCCACCUAUCAGCACCAACUCUCAGUUCAUCAGGGUUGAGAAAGGACACUGGAUUGAGCUUCUGAAAUGCCACUGGUAGCUCUGUAACAUGGGAAUGGAAAUG`, “RBNS enrichment (R)” read 0.708.
`AAGGAGACAGUGACAAUGGGCAGUGGAUAGCCCUCACUCGUGAGUGUUUAAUGUUGCAGCAAACUCACCAAGAAGGAGACAAAUGGCUGUUUCGAAUGGAAGCUUUCUCA`: “RBNS enrichment (R)” 0.545.

Block 3
Target: Histone acetyltransferase KAT6A, both winged helices, GST fusion (KAT6A, Homo sapiens, UniProt Q92794, residues 1-181)
Method: protein binding microarray
Molecule type: double-stranded DNA, one strand shown
Matrix: in vitro
Tested at: not given
Notes: 8-mer, flanks averaged, mean of 2 arrays, mostly near background
Reference: not given
Reading: higher = stronger binding
Residues (chain): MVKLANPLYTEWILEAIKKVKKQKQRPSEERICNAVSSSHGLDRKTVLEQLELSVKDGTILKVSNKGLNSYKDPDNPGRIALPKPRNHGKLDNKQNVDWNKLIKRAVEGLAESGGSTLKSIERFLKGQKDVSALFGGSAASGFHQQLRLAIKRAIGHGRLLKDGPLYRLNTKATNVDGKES
`GCCGCATA` has an E-score of 0.255.
The E-score of `CGCCGGGA` is reported as 0.299.
The E-score of `CACGGGTA` is reported as 0.182.
For `CCAGAGTC`, the E-score was -0.0782.
For `ACAGCAAA`, the E-score was 0.0849.
With `CAAGTGGA` the E-score was -0.256.
With `AAAATCCC` the E-score was -0.0073.
The E-score of `AACTGTAA` is reported as 0.0478.
`GGCGGCCC` gave an E-score of 0.174.
For `CCAGTAGC`, the E-score was 0.0721.
For `GGATGACC`, the E-score was -0.0608.
With `GACCGAGA` the E-score was 0.146.
The E-score of `ACGTTTCG` is reported as 0.0522.
`CACGATGA` gave an E-score of -0.019.
`GCTGTGAC` has an E-score of 0.0703.
`AATCGACA` has an E-score of -0.0557.
The E-score of `AGTAAGGC` is reported as -0.0635.

Block 4
Target: Fragile X messenger ribonucleoprotein 1, C-terminal low-complexity region (Fmr1, Mus musculus, UniProt P35922)
Method: RNA Bind-n-Seq
Molecule type: RNA
Matrix: in vitro
Tested at: 200 nM
Notes: whole 134-nt RNA, ends assumed
With: 150 mM LiCl
Reference: input library
Reading: higher = stronger binding
Each molecule: 7-deaza-guanosine replaces G
All sequences stand within: GGGAGUUCUACAGUCCGACGAUC … UGGAAUUCUCGGGUGUCAAGG
`CUCAAGUCCUGUGCUACACAUCGUAUGUACCGAAUCGGUUUGGAAAGGAAAGGAAAGUAUUAUGUUACGCCGUUCGGAUCUGCACUUCCA` has a log2 enrichment of 0.206.
`CAAGUCCUGUGCUACACAUCGUAUGUACCGAAUCGGGCCGGGGCCGGGGCCGGGGAAAGUAUUAUGUUACGCCGUUCGGAUCUGCACUUC` gave a log2 enrichment of -0.0111.
`GUCCUGUGCUACACAUCGUAUGUACCGAAUCGGGGAGGGGUUUGGGGAAAAAAAGGGGAAAGUAUUAUGUUACGCCGUUCGGAUCUGCAC` gave a log2 enrichment of -0.678.
For `AGUCCUGUGCUACACAUCGUAUGUACCGAAUCGGGGAAAAAGGGGAAAGGGGAGGGGAAAGUAUUAUGUUACGCCGUUCGGAUCUGCACU`, the log2 enrichment was -0.104.
`UGGGAGGUGGAUUUUGUUUAUUUUUUUAGCUCAUUUCCAGGGGUGGGAAUUUUUUUUUAAUAUGUGUCAUGGAUAAAGUUGUUUUUGAAA` has a log2 enrichment of 0.297.
`UCCUCAAGUCCUGUGCUACACAUCGUAUGUACCGAAUCGGUGGUUUGGUGGAAAGUAUUAUGUUACGCCGUUCGGAUCUGCACUUCCAGC` has a log2 enrichment of 0.167.
`UGGGAGGUGGAUUUUGUUUAUUUUUUUUGCUCAUUUCCAGGGGUGGGAAUUUUUUUUUAAUAUGUGUCAUGAAUAAAGUUGUUUUUGAAA` gave a log2 enrichment of 1.29.
The log2 enrichment of `ACCAUGCAGGUGGGCAUCUUUGGCAAGUGGGGCAAGGGGGGGAUAGGGAGGGGGGUAACACUUUGGGAACAGGUGGUCCCAGGUCGUUUC` is reported as 1.41.
`UCAAGUCCUGUGCUACACAUCGUAUGUACCGAAUCGGGUUUGGGGUUUGGUUUGGAAAGUAUUAUGUUACGCCGUUCGGAUCUGCACUUC` has a log2 enrichment of -1.01.
For `UUGUCUACAGAACUAGACAGUACGGAUGGUGCCAAAGUUUUUAGUAAACAACCAGGAAGAAUCCAAAGAGUAGCAAGAGGAUCGGGUGUA`, the log2 enrichment was -2.46.
`AAGUCCUGUGCUACACAUCGUAUGUACCGAAUCGGGUUUUUUUGGGUGGGUUUGGGAAAGUAUUAUGUUACGCCGUUCGGAUCUGCACUU` has a log2 enrichment of -1.79.

A few entries again (block 1):
The bound/input enrichment of `UGGGUUACUCCUAUUAUUAUCAAGUAGCUGGAAUUGUGAAGGUCGGAGUAGUUAGAUCUUUAGCUUUUAUUCCUUAUUUUUUUUUGUAUUCCUAUCCAUGUGUAUAAAUUAUUGAUCAUG` is reported as 7.14 ratio.
For `UAUUCAGUCAUGGAGAAAAGGUUAUUAAAAUAAUCUUAUGGCACUGCUCUUUACUUUUAUUAGUUUUACAAGAGUUAGGGUUCUUGUUCACAGAAAACAGGAGCUGACUAUUGAGGAGAA`, the bound/input enrichment was 0.345 ratio.
`UCCAGUCUUACACUUAUAGUUGGCCUCAAAUCUAUUGCAUUUAUGAUAAUGUAUUAUAUCUAGUUGAGUUUAAUAUUUUUUUAUUAGCUUGUAAAUAAAGAUGGCAUCUUCUACAUUAAA` has a bound/input enrichment of 0.803 ratio.
`CCCCGUUUUUAAAUGCCCUUUUGAUGCUCCCAGCAGCACCAUUUGUACAGUUUUUCUCUAAAAACAAAAAUGUUGAUUCGAAUUUCUUGUAUUUAAGUUUAAAUUGUUACAACAUUUUAG` has a bound/input enrichment of 0.189 ratio.
